Assay results collected from several papers.
Lines come from different studies, so protocols differ. ± marks the error that the study gave.

N#CCC(=O)Nc1ccc([C@H]2[C@@H](F)[C@@H](F)C[C@@H](F)[C@H]2F)cc1
hepatic clearance (hepatocyte stability; cryopreserved human hepatocytes; 1 µM): 10 mL/min/kg

O=C(Nc1nc2cccc(-c3ccc(CN4CCS(=O)(=O)CC4)cc3)n2n1)C1CC1
treatment-emergent adverse events (refers to: any adverse event; human rheumatoid arthritis patients; oral, 75 mg once daily, 4 weeks, regardless of relatedness): 31.8%

CCN1/C(=C/C(C)=O)Sc2ccc(F)cc21
PR interval (cynomolgus monkey; oral, 10 mg/kg, 1 h post-dose): 91 ± 3 ms

COc1ccc2[nH]c([S+]([O-])Cc3ncc(C)c(OC)c3C)nc2c1 (stereo not drawn)
Cmax (healthy Chinese volunteers, plasma; oral, 20 mg, enteric-coated tablets, all CYP2C19 genotypes): 454 ± 530 ng/mL

Cc1ccc(C(=O)N(CCCN)C(c2nc3snc(C)c3c(=O)n2Cc2ccccc2)C(C)C)cc1 (stereo not drawn)
grade ≥3 hyperbilirubinemia patients (human patients; intravenous, 2 mg/day): 17%

CC(C)C[C@H](NC(=O)C[C@H](O)[C@H](CC(C)C)NC(=O)[C@H](Cc1c[nH]cn1)NC(=O)CNC(=O)[C@@H](NC(=O)[C@H](C)NC(=O)[C@H](Cc1c[nH]c2ccccc12)NC(=O)[C@H](CCC(N)=O)NC(=O)[C@@H](Cc1ccccc1)NC(=O)COCCOCCNC(=O)CCC(C(=O)O)N1CCN(CC(=O)O)CCN(CC(=O)O)CCN(CC(=O)O)CC1)C(C)C)C(N)=O (stereo partly drawn) [lutetium-177 labelled]
tissue uptake (female BALB/c nu/nu mice, lung; intravenous, 100 pmol, 2 h, together with: PA 300 µg): 0.2 ± 0.04 %ID/g

CCCCC1=NC2(CCCC2)C(=O)N1Cc1ccc(-c2ccccc2S(=O)(=O)Nc2noc(C)c2C)c(COCC)c1
Cmax (healthy adult volunteers, plasma; oral, 800 mg, 14 days repeated dosing, fasted, crushed tablet): 9810 ng/mL

O=[N+]([O-])c1cc2c3ccccc3ccc2c2ccccc12
time to first palpable tumour (female Sprague-Dawley rats, mammary gland; intramammary injection, 12.3 µmol/rat total, palpation from week 5): 9 week

O=C1NCCc2nc(OCc3cccc(F)c3)ccc21
Irwin test score (refers to: loss of Placing; Sprague-Dawley rat male; oral, 100 mg/kg, 4 h; direction not given): 0

O=C(NCC1CCOCC1)c1ccc(C2CCCCC2)cc1
hepatic clearance (liver microsome stability; mouse liver microsomes; 1 µM): 82 mL/min/kg

O=C1CCc2ccc(OCCCCN3CCN(c4cccc(Cl)c4Cl)CC3)cc2N1
adverse event incidence (refers to: Hypertension; patients, CYP2D6 normal metabolizers; dose not given, long-acting oral or depot): 0.9%

C[C@@H](c1nc(-c2ccc(C#N)cc2)cs1)[C@](O)(Cn1cncn1)c1cc(F)ccc1F
TEAE incidence (refers to: infections and infestations; healthy human; oral, 200 mg, 13 days, study): 5.6%

Cn1cc(-c2ccc(-c3cncc(Cl)c3N3CCC4(CCNC4=O)CC3)cc2)cn1
log2 fold change (COLO 205; gene expression, microarray, refers to: CTSB mRNA; concentration not given, 2 h; relative to: untreated cells): 2.14

O=C(CCCCCCC(=O)Nc1ccc(CC[18F])cc1)NO
tissue uptake (athymic nu/nu male mice, LNCaP xenograft, liver; intravenous, 2 h): 1.2 ± 0.6 %ID/g

CN1CCN(C(=O)c2ccc(C3CCCCC3)cc2)CC1
hepatic clearance (liver microsome stability; mouse liver microsomes; 1 µM): 86 mL/min/kg

CN(CC#N)C(=O)C[C@H](Nc1nc2ccccc2[nH]1)c1cccc(C(F)(F)F)c1
apparent volume of distribution (human; intravenous infusion, 5 mg/kg, 1 mg/mL formulation): 99.9 ± 31.2 L

CN1C(=O)[C@@H](NC(=O)c2nnc(Cc3ccccc3)[nH]2)COc2cccnc21
Tmax (human, plasma; oral, 100 mg once daily, day 14, median): 3 h

CCCCCNC(=O)N1CCC(CN(Cc2ccc(Cl)cc2)Cc2ccc([N+](=O)[O-])s2)C1 (stereo not drawn)
blood cell fraction (refers to: RDW; C57BL/6 mouse, blood; 100 mg/kg twice daily, 7 days): 17 ± 0.5%

N#Cc1ccc2c(c1)[C@H]1CCCN(C(=O)c3ccc4[nH]cnc4c3)[C@H]1C2
androstenedione level (human, female; 360 mg, day 15): 8.2 nmol/L

COc1cc(C(=O)N2CCC3(CC2)CC(=O)c2c(cnn2C(C)C)C3)cc(-c2ccc(C(=O)O)cc2)n1
placebo-adjusted change from baseline (refers to: HDL cholesterol; human, fasting serum; 100 mg every 12 h, day 13, adjusted geometric mean; relative to: baseline and placebo): -19.6%

CN(Cc1cc(C(F)(F)F)cc(C(F)(F)F)c1)c1nc2ccccc2c(=O)s1
degradation rate constant (chemical stability, HPLC-MS; borate buffered saline; pH 10.2, no N-acetyl-lysine): 0 h⁻¹

Cn1cncc1-c1c(F)cncc1NC(=O)c1c(N)nn2cc(F)cnc12
Vp/F (population PK model; patients with solid tumours, plasma; oral): 136 L

C[C@]12CC[C@@H]3c4ccc(O)cc4CC[C@H]3[C@@H]1CCC2=O
milk fat partition ratio (cow whole milk; 20 nM; relative to: milk fat over skim milk): 69

CNc1ccc(-c2nc3ccc(O)cc3s2)cc1 [carbon-11 labelled]
SUV (ex vivo biodistribution; APP/PS1 mouse, AD model, pancreas; intravenous, 30 min): 0.384 ± 0.157

O=C(COc1ccc(Cl)cc1)NC12CC(c3nnc([C@H]4C[C@@H](OC(F)(F)F)C4)o3)(C1)C2
adverse event incidence (refers to: muscle spasms; human; oral, 200 mg once daily, 14 days): 14.3%

CNC(=O)c1cc(Oc2ccc(NC(=O)Nc3cc(C(C)(C)C)nn3-c3ccc4ncccc4c3)c(F)c2)ccn1
patients with adverse events (refers to: any AESI, worst grade ≥2; human patients; oral, dose not given, medium AUC(0-4 h) subgroup, cycles 1-2): 14%

C=CC(=O)NC1CCN(c2ncc3ncnc(Nc4ccc(Oc5ccc6c(c5)ncn6C)c(C)c4)c3n2)CC1
AUC(0-tz) (human, male, plasma; oral, 30 mg, fasted, adjusted geometric mean): 5.63 µM·h

Cc1cc(NC2CCN(C(=O)OC3CCN(C(=O)/C=C/CN(C)C)C3)CC2)n2ncc(C(C)C)c2n1 (stereo not drawn)
patients with adverse event (Phase I dose escalation CTCAE v4.0, refers to: pain in extremity; patients with advanced solid tumours; dose not given, Total dosing any grade): 6%

Cn1ncnc1[C@H]1c2n[nH]c(=O)c3cc(F)cc(c23)N[C@@H]1c1ccc(F)cc1
AUC(0-8h) (human patients, plasma; oral, 600 µg/m2 twice daily, day 1, monotherapy, dose level DL3, median): 12.3 ng·h/mL

NC(=O)CCNC(=O)c1ccc(C2CCCCC2)cc1
hepatic clearance (liver microsome stability; human liver microsomes; 1 µM, without NADPH): 3.9 mL/min/kg

CNC(=O)c1ccc(-c2cnc3ncc(Cc4ccc5ncccc5c4)n3n2)cc1F
Cellulitis dose reduction/interruption (Japanese patients; oral, 400 mg, any grade): 2%

Cc1ccc(OC2CCN(c3ncnc4ccc(F)cc34)CC2)cn1
intrinsic clearance (scaled) (human liver microsomes): 290 mL/min/kg

CNC(=O)c1ccc(-c2cnc3ncc(Cc4ccc5ncccc5c4)n3n2)cc1F
patients with adverse event (refers to: Anemia; cancer patients; oral, dose not given, dose escalation, grade 3-4): 5%

CN1CCN(c2cccc3c2CCN(C(=O)/C=C/c2c(-n4cnnn4)ccc(Cl)c2F)[C@@H]3C(=O)Nc2ccc(C(=O)O)cc2)C(=O)C1
subjects with infusion site pain (healthy human subjects; intravenous infusion, 9 mg/h, 5 days): 0%

C=CC(=O)Nc1cc(Nc2nccc(-c3cn(C4CC4)c4ccccc34)n2)c(OC)cc1N(C)CCN(C)C
relative error (bench-top stability; rat plasma; 160 ng/mL, 3 h, room temperature; relative to: nominal concentration): -8.5%

O=C(O)CCCOc1ccc([18F])cc1-c1cc(-c2ccccc2C(F)(F)F)n(-c2ccccc2)n1
unchanged fraction of radioactivity (radio-TLC; ddY mice male, heart; intravenous, 37 MBq, 15 min): 94.1 ± 3%

Cc1ccc(Sc2ccccc2N2CCNCC2)c(C)c1
participants with TEAE (refers to: haemoglobin decreased; healthy adult men; oral, 10 mg daily, 12 days): 0%

Cc1cc(C)c(CNC(=O)c2cc(Cl)c3c(c2C)O[C@@](C)([C@H]2CC[C@H](N(C)C)CC2)O3)c(=O)[nH]1
fu (ultracentrifugation; 0.1% human alpha-1-acid glycoprotein; 5000 ng/mL, 160 min): 0.233

CC(C)(C(=O)N1CCOc2c(C#N)cncc2C1)C(F)F
subjects with adverse event (refers to: Investigations; human; oral, 40 mg, CSF pharmacokinetic cohort): 0%

NC1(C(=O)N[C@@H](CCO)c2ccc(Cl)cc2)CCN(c2nc[nH]c3nccc2-3)CC1
incidence of maculopapular rash (metastatic CRPC patients; 480 mg b.i.d., any grade, treatment-related, together with: enzalutamide 160 mg daily): 40%

CCOc1c([C@H](C)n2nc(C)c3c(N)ncnc32)cc(Cl)c(F)c1[C@@H]1CNC(=O)C1
observations QTcF >450 ≤480 ms (ECG; previously treated B-cell malignancy patients; oral, 45 mg once daily, baseline QTcF ≤450 ms): 0%

CC(C)(C)NC(=O)C1CCN(Cc2cccc(/N=N/c3ccccc3)c2)CC1
absorption maximum, cis isomer (DMSO; 25 µM, 25 °C): 436 nm

O=C(N[C@H](Cc1c[nH]c2ccccc12)C(=O)Nc1ccncc1)c1ccc(-c2cc(C(F)(F)F)ccc2F)cc1F
concentration (Swiss Webster mouse, female, plasma; oral, 50 mg/kg, 2 h, 20% Kolliphor vehicle): 10.3 µM

CSCC[C@H](NC(=O)[C@H](CCCCN)NC(=O)[C@H](CCCNC(=N)N)NC(=O)[C@H](CO)NC(=O)[C@H](Cc1c[nH]c2ccccc12)NC(=O)[C@H](CCCNC(=N)N)NC(=O)[C@H](CC(C)C)NC(=O)[C@@H](N)CCSC)C(=O)N1CCC[C@H]1C(=O)N[C@@H](CS)C(=O)N[C@H](C(=O)N[C@@H](CO)C(N)=O)C(C)C
remaining activity (12G5 competition, SUP-T1 cells; human plasma; concentration not given, 2 h): 4 ± 0.5%

CN1CCN(C(=O)c2ccc(C3CCCCC3)cc2)CC1=O
hepatic clearance (liver microsome stability; mouse liver microsomes; 1 µM): 71 mL/min/kg

COc1ncc(-c2nc3c(n2C(C)C)[C@H](c2ccc(Cl)cc2)N(c2cc(Cl)cn(C)c2=O)C3=O)c(OC)n1
median Tmax (human patients, plasma; oral, 25 mg, high-dose arm, cycle 1 day 1): 2.1 h

O=C1CC2(CCCC2)CC(=O)N1CCCCN1CCN(c2ncccn2)CC1
remaining parent compound (LC-MS; Sprague-Dawley rat liver microsomes; 10 µM, 60 min, pH 7.4, together with: NADPH; relative to: time 0): 41%

COc1ccnc(C(=O)N[C@H]2COC(=O)[C@H](Cc3ccccc3)[C@@H](O)[C@H](C)OC2=O)c1O
KFoc (soil adsorption; soil; pH 6.9, organic carbon 0.8 %): 2870 mL/g

CNCc1ccc(-c2[nH]c3cc(F)cc4c3c2CCNC4=O)cc1
dysgeusia incidence (human patients; oral, 840 mg twice daily, all grades): 66.7%

O=C(Nc1ccc(C2CCCCC2)cc1)[C@H]1CC1(F)F
hepatic clearance (liver microsome stability; cynomolgus liver microsomes; 1 µM): 35 mL/min/kg

OC[C@H]1O[C@@H](Oc2c[nH]c3ccccc23)[C@H](O)[C@@H](O)[C@@H]1O
serum protein binding (ultrafiltration; normal rat serum; 37 °C): 96 ± 3%

O=C(O)CCC(=O)O.[2H]C([2H])([2H])Oc1cc(C)c2[nH]ccc2c1CN1CC[C@@H](C2CC2)C[C@H]1c1ccc(C(=O)O)cc1
TEAE decreased neutrophil (healthy Chinese subjects; 50 mg, single ascending dose): 0%

CCc1cc(C(=O)NC)c2nccc(N3CCc4c(cc(Cn5ccnc5)cc4-c4cn(C)nc4C(F)(F)F)C3=O)c2c1
serum CK activity (Sprague Dawley rats; oral, 100 mg/kg twice daily, 7 days): 108 ± 20.6 U/L

Cl.[2H]C([2H])([2H])CC(=O)c1cnc(NC(=O)C2CC2)cc1Nc1cccc(-c2ncn(C([2H])([2H])[2H])n2)c1OC
AUC(0-tau) (geometric mean; human; oral, 20 mg twice daily, day 1, fasted, tablet, multiple dose): 793 ng·h/mL

C=CC(=O)N(C)CCOc1c(N)ncnc1-c1cc(F)cc(NC(=O)c2ccc(C3CC3)cc2F)c1C
AUC (human, whole blood; oral, 100 mg once daily, day 1): 315 ng·h/mL

CN(Cc1cccnc1)C(=O)c1ccc([C@H]2[C@@H](F)[C@@H](F)C[C@@H](F)[C@H]2F)cc1
hepatic clearance (liver microsome stability; human liver microsomes; 1 µM, without NADPH): 3.9 mL/min/kg

O=C(NCCN1CCCC1)c1cc(-c2ccc(CN3CCOCC3)cc2)nc2ccc(F)cc12
intrinsic clearance (human hepatocytes): < 0.5 mL/min/g

COCCC(=O)Nc1ccc(C2CCCCC2)cc1
hepatic clearance (hepatocyte stability; cryopreserved mouse hepatocytes; 1 µM): 82 mL/min/kg

CN(CCCN1CCN(C(=O)CN2CCN(CC(=O)[O-])CCN(CC(=O)[O-])CCN(CC(=O)[O-])CC2)CC1)c1ccc2nccc(C(=O)NCC(=O)N3CC(F)(F)C[C@H]3C#N)c2c1.[68Ga+3]
uptake (mice, HT-1080.hFAP and HT-1080 wild-type xenografts, liver; iv, 500 pmol, 1 h post injection): 0.4 ± 0.1 %IA/g

NC(=O)c1[nH]cnc1N
AUC(0-8h) (human patients, plasma; IV infusion over 1 h, 1000 mg/m^2 DTIC, cycle 2 day 1, co-administered with co-drug): 5510 ng·h/mL

A few entries again:
O=C(NCC1CCOCC1)c1ccc(C2CCCCC2)cc1
hepatic clearance (liver microsome stability; mouse liver microsomes; 1 µM): 82 mL/min/kg

Cc1cc(C)c(CNC(=O)c2cc(Cl)c3c(c2C)O[C@@](C)([C@H]2CC[C@H](N(C)C)CC2)O3)c(=O)[nH]1
fu (ultracentrifugation; 0.1% human alpha-1-acid glycoprotein; 5000 ng/mL, 160 min): 0.233

COc1cc(C(=O)N2CCC3(CC2)CC(=O)c2c(cnn2C(C)C)C3)cc(-c2ccc(C(=O)O)cc2)n1
placebo-adjusted change from baseline (refers to: HDL cholesterol; human, fasting serum; 100 mg every 12 h, day 13, adjusted geometric mean; relative to: baseline and placebo): -19.6%

COCCC(=O)Nc1ccc(C2CCCCC2)cc1
hepatic clearance (hepatocyte stability; cryopreserved mouse hepatocytes; 1 µM): 82 mL/min/kg
